Results of several laboratories.
A part holds a random share of what one study measured.

Sample 1
Target: Fragile X messenger ribonucleoprotein 1, C-terminal low-complexity region (Fmr1, Mus musculus, UniProt P35922)
Method: RNA Bind-n-Seq
Molecule type: RNA
Sample: in vitro
Tested at: 200 nM
Notes: whole 134-nt RNA, ends assumed
Added: 150 mM KCl
Reference: input library
Reading: higher = stronger binding
Shared flanks, not repeated: GGGAGUUCUACAGUCCGACGAUC … UGGAAUUCUCGGGUGUCAAGG
Sequence | log2 enrichment
UUCGAAGAGGUUGUGUACCAGGCCAUGGGUGAGUGCCCGGGCCACCGAGGCCACGUGCCUCCACGAGGGGCUGCCUAUGCCCCACCCUGG | -0.591
UUCAGUUGGAUGGAUUUAUUGCUCGAAACUGGGCCAAUCAAAGAUCAGCUUUGGGAAGUGCUCUUGAUCCACUUGCUGAUAAAAUACUUA | -1.3
ACCAUGCAGGUGGGCAUCUUUGGGAAGUGGGGCAAGGGGGGGAUAGGGAGGGGGGUAACACUUUGGGAACAGGUGGUCCAAGGUCGUUUC | 0.594
UGGGAGGUGGAUUUUGUUUAUUUUUUUAGCUCAUUUCCAGGGGUGGGAAUUUUUUUUUAAUAUGUAUCAUGAAUAAAGUUGUUUUUGAAA | -0.00297
GUCCUGUGCUACACAUCGUAUGUACCGAAUCGGAAAAAGGGGAAAAAGGGGAAAAAGGGAAAGUAUUAUGUUACGCCGUUCGGAUCUGCA | -0.024
CAAGUCCUGUGCUACACAUCGUAUGUACCGAAUCGGUUUUUUUGGAAAAAGGUGGAAAGUAUUAUGUUACGCCGUUCGGAUCUGCACUUC | -0.696
UGUGUGUUAUAUAUUUAUUUUUAAUUGCAGAUGACAGGAUUGGACAUUGAGAAGGACCAGAUUAUUGAGAUGGCCUGUCUGAUAACUGAC | -2.06
GUCCUGUGCUACACAUCGUAUGUACCGAAUCGUGUGUGUGUGUGUGUGUGUGUGUGUGUAAAGUAUUAUGUUACGCCGUUCGGAUCUGCA | 0.53
CACAGACAACACGCACAAACACAGACACAGAGGGAAGGGGUUGGGAUGGGGACAGGGUGCACAGCAGGGCGGGGUAGGACCCCAGCCCCU | 1.15
UGGGAGGUGGAUUUUGUUUAUUUUUUUAGCUCAUUUCCAGGGGUGGGAAUUUUUUUUUAAUAUGUGUCAUGACUAAAGUUGUUUUUGAAA | 0.546
CUGUGCUACACAUCGUAUGUACCGAAUCGGUUUUUUUGGGGUUUUUUUGGGUUUUUUUGGGGAAAGUAUUAUGUUACGCCGUUCGGAUCU | -0.241
CUCAAGUCCUGUGCUACACAUCGUAUGUACCGAAUCGGUUUUUUUGGAGGUGGAAAGUAUUAUGUUACGCCGUUCGGAUCUGCACUUCCA | -0.167
AAGUCCUGUGCUACACAUCGUAUGUACCGAAUCGGUUUUGGUUUUGGGGUUUUGGGGAAAGUAUUAUGUUACGCCGUUCGGAUCUGCACU | -0.196
UGGCCCUGGUGGCAUGCGGGGAGGAAGAGGUGGCCUCAUGGAUCGUGGUGGUCCCGGUGGAAUGUUCAGAGGUGGCCGUGGUGUAGACAG | 0.13

Sample 2
Target: Interferon regulatory factor 7, full length, phosphomimetic (IRF7, Homo sapiens, UniProt Q92985, residues 1-503, S471D/S472D/S475D/S476D/S477D/S483D/S484D/S487D)
UniProt Q92985, sequence (whole entry, unmodified, looked up): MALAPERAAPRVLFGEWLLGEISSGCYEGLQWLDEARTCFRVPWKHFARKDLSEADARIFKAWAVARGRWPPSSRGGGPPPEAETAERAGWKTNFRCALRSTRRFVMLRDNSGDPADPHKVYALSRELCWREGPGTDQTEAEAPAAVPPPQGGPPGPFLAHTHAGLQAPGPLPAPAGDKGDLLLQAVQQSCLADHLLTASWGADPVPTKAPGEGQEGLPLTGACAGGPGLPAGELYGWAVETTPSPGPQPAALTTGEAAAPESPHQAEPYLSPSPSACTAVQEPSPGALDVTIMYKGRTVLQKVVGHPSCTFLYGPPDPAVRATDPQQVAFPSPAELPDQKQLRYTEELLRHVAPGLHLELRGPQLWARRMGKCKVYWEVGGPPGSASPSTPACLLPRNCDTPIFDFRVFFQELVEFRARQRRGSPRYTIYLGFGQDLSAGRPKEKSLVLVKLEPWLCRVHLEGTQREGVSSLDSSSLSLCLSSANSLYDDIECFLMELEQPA
Method: protein-binding microarray
Molecule type: double-stranded DNA, one strand shown
Sample: in vitro
Tested at: 2200 nM top
Notes: 60-bp whole probe
Added: salmon DNA 0.4 mg/ml
Reference: random background probes
Reading: higher = stronger binding
Shared flanks, not repeated: GCCTAGCAC … GTCTTGATTCGCTTGACGCTGCTG
Sequence | fitted relative affinity
GACGGTTTCGGGTTTCGGTACGTGCTA | 9.9 z-score
TTAGATTTCGGTTTTCGATTAGTGCTA | 9.41 z-score
TCAAGTATTTTTTTCCAACTGTGCTAG | 0.716 z-score
GACGGTCTCTTTCTCCTGACGTGCTAG | 1.35 z-score
TTAGGTCTCGGTATCTGTTAGTGCTAG | 0.819 z-score
TTAGGACTGGAGACTGGGTTAGTGCTA | -0.865 z-score
TTGGGTATCGACTATCGGTTAGTGCTA | 0.803 z-score
GAAAAATCTGGAACTAACAGGTGCTAG | -0.685 z-score
GACGATTTCGGGTATCGAGATGTGCTA | 2.86 z-score
GACGATATCAGTTCCGAGACGTGCTAG | 0.833 z-score
TCATTTCTCTTTCACTAACTGTGCTAG | 4.07 z-score
GCGCCTTGATGTCTGGGTCTGTGCTAG | 0.861 z-score
TTTGCTTTAGTCATTCACTGAGTGCTA | 1.18 z-score
GACGGCTTCGGACTGGGGACGTGCTAG | -0.623 z-score
TTAGGTCTCCTTCTGCTTTAGTGCTAG | 0.797 z-score
TGAGATATCAGACTGGATTAGTGCTAG | -0.408 z-score
GACGGTATCCTTATCCTGACGTGCTAG | 1.19 z-score
GTTCAAAGTCCTACGGCTTCGTGCTAG | 0.157 z-score
GACGGACTGGACTATCGGGATGTGCTA | -0.578 z-score
GACGGTTTCGGTAACGGGACGTGCTAG | 3.24 z-score
TCAGCATTTTTTTTATCACTGTGCTAG | 0.631 z-score
GACGATCTCAGACTGGAGGCGTGCTAG | -0.307 z-score
TCAGGACTGGGACTGGGTTAGTGCTAG | -0.636 z-score

Sample 3
Target: Prothrombin, mature alpha-thrombin (F2, Homo sapiens, UniProt P00734)
Method: aptamer microarray, sandwich
Molecule type: DNA with 2'F-ANA
Sample: in vitro
Tested at: 200 nM
Notes: whole 15-mer aptamer, many near background
Added: Cy3 exosite-II aptamer, 400 nM
Reading: higher = stronger binding
Sequence: GGTTGGTGTGGTTGG
Modification | mean fluorescence intensity
2'F-ANA at 1 2 4 7 8 9 | 161 a.u.
2'F-ANA at 1 4 5 7 9 10 11 12 13 | 77.4 a.u.
2'F-ANA at 5 6 9 10 11 15 | 47.8 a.u.
2'F-ANA at 1 2 6 8 9 10 11 14 | 51.1 a.u.
2'F-ANA at 1 2 5 6 8 12 13 | 82.7 a.u.
2'F-ANA at 1 3 4 6 | 215 a.u.
2'F-ANA at 1 5 10 11 12 13 15 | 45.3 a.u.
2'F-ANA at 2 4 7 11 12 14 15 | 172 a.u.
2'F-ANA at 2 4 7 9 10 11 13 15 | 69.9 a.u.
2'F-ANA at 2 4 5 8 11 13 15 | 58.1 a.u.
2'F-ANA at 5 6 8 9 11 | 70.8 a.u.
2'F-ANA at 1 3 5 12 13 14 15 | 59.1 a.u.
2'F-ANA at 1 2 5 6 11 13 14 15 | 49.7 a.u.
2'F-ANA at 1 3 7 9 10 14 | 60.4 a.u.
2'F-ANA at 1 3 4 5 9 10 11 14 15 | 103 a.u.
2'F-ANA at 2 3 5 6 9 11 12 13 14 | 57 a.u.
2'F-ANA at 1 2 4 6 7 8 9 13 14 | 51.4 a.u.
2'F-ANA at 1 3 6 7 8 9 10 13 14 | 68.2 a.u.
2'F-ANA at 2 4 8 10 11 13 15 | 67.5 a.u.
2'F-ANA at 2 3 6 8 10 11 12 14 15 | 214 a.u.
2'F-ANA at 1 9 10 12 13 | 62.9 a.u.
2'F-ANA at 1 2 4 5 6 7 9 11 12 14 15 | 54.8 a.u.
2'F-ANA at 1 2 3 5 7 8 9 10 11 15 | 47.9 a.u.
2'F-ANA at 1 2 3 4 8 9 10 11 14 15 | 60.2 a.u.
2'F-ANA at 1 4 7 8 10 12 13 14 15 | 47 a.u.

Sample 4
Target: Protein C-ets-1 (ETS1, Homo sapiens, UniProt P14921, residues 1-441, full length assumed)
UniProt P14921, sequence (whole entry, looked up): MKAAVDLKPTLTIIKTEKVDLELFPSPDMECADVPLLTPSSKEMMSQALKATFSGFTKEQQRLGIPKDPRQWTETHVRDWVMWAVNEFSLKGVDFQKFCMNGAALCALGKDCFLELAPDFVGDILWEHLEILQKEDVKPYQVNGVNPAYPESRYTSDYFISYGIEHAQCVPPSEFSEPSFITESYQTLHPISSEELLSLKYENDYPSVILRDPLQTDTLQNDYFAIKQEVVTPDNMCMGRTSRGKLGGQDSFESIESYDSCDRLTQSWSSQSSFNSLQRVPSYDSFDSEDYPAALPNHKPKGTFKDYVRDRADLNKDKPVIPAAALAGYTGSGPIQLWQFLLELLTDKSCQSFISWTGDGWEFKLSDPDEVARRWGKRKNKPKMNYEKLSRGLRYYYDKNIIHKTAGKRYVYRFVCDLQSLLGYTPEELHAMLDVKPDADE
Method: protein-binding microarray
Molecule type: double-stranded DNA, one strand shown
Sample: in vitro
Tested at: not given
Notes: k-mer, scored over probes, only values ≥0.25
Reading: higher = stronger binding
Sequence | E-score
CTATTTCC | 0.439
ACGGGAAA | 0.41
AAAGCGGA | 0.356
ACTCCCGG | 0.264
GACCGGAA | 0.489
CCGGCGGA | 0.41
CTTCCATC | 0.281
TCCGCCCA | 0.369
GATGTTCC | 0.342
CTGCATCC | 0.398
GATATTCC | 0.252
ATCCTGCG | 0.379
ATCCTGGC | 0.331
CGGAAGGA | 0.457
AAGCGGAT | 0.431
ACATCCCC | 0.363
ACCAGGAT | 0.279
TATGCGGA | 0.265
CATCGGAA | 0.319
CCGGGAGG | 0.316
ACATCCTG | 0.474
CGGATTTC | 0.333
AACGTCCG | 0.442
CGTCATCC | 0.289
CGGTTATC | 0.257

Sample 5
Target: Histone acetyltransferase KAT6A, winged helix 2, GST fusion (KAT6A, Homo sapiens, UniProt Q92794, residues 85-181)
Method: protein binding microarray
Molecule type: double-stranded DNA, one strand shown
Sample: in vitro
Tested at: not given
Notes: 8-mer, flanks averaged, mean of 2 arrays, mostly near background
Reference: not given
Reading: higher = stronger binding
Residues (chain): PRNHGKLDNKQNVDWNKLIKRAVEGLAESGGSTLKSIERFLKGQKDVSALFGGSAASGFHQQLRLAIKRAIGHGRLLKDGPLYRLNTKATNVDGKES
Sequence | E-score
CGATCATA | 0.0717
AAAATCGC | 0.0391
CTGCGCCA | 0.131
GCGTCGCC | 0.238
GAATCACA | -0.14
GCCCCCCC | 0.0442
CTTCTGAC | -0.0865
CACACACG | 0.00257
ACGCGAAA | 0.0909
GCTAGTAC | 0.0471
CACGACAC | -0.0391
ACCGGGTA | -0.0279
AAGAGACG | 0.0145
AGCCACGG | -0.0844
TGCTCCCA | 0.0957
ATGATTTG | -0.101
ATCGCTCA | -0.0129
GAACTGCC | 0.00474
ACGTATAT | -0.237
ATCGAGCG | 0.0684
AAATAGCT | -0.198
TGCGACAA | 0.0805
CACCTGGA | -0.00025
ACGAGTCC | -0.0724
TCCTGAAA | 0.0912

For quick reference, copied from above (sample 5):
Sequence | E-score
ACGAGTCC | -0.0724
ACCGGGTA | -0.0279
ATGATTTG | -0.101
GAACTGCC | 0.00474
ATCGAGCG | 0.0684
TCCTGAAA | 0.0912
GCCCCCCC | 0.0442
ACGTATAT | -0.237
CGATCATA | 0.0717
GCGTCGCC | 0.238
CACGACAC | -0.0391
ATCGCTCA | -0.0129
AAGAGACG | 0.0145
CACACACG | 0.00257
CTGCGCCA | 0.131
CACCTGGA | -0.00025
AAAATCGC | 0.0391
AGCCACGG | -0.0844
